# Assay results pooled from the literature.
# Parts stem from different laboratories: compare values within a part only. Positions count from the first letter of the parent shown.

# Series 1 — target: CCNA2, cyclin fold, Cln2 fusion (human); method: yeast growth competition, sequencing; medium: yeast; notes: strong parent motif; baseline: not given; direction: higher = stronger binding
# Starting sequence: PKMYT1 docking peptide (human); SFEPRNLLSLFED
Substitution,normalised enrichment score
L7Q,-1.25
F11T,-0.306
N6C,2.86
L7W,-0.381
L7A,-0.544
L8H,-0.0322
N6A,1.52
E12Y,2.2
L8V,0.883
N6P,-0.384
E3W,2.78
F11C,-0.952
E12W,1.33
S1N,3.26
R5P,-1.18
L10A,2.58
P4H,-0.703
N6T,-0.000852
N6S,2.96
F2N,-0.168
L8D,-0.0465
D13P,2.5
S9P,3.91
L8C,1.56
S9E,1.91

# Series 2 — method: protein binding microarray; form: double-stranded DNA, one strand shown; medium: in vitro; concentration: not given; baseline: not given; direction: higher = stronger binding
# Target: Histone acetyltransferase KAT6A, winged helix 1, GST fusion (KAT6A, Homo sapiens, UniProt Q92794, residues 1-85)
# Notes: 8-mer, flanks averaged, mean of 2 arrays, mostly near background
# Construct (chain): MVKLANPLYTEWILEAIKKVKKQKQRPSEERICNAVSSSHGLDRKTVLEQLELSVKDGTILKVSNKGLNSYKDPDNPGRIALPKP
Sequence,E-score
CGCGTCAG,0.229
ACTCCAGA,-0.197
ATAAGGGC,-0.158
CCTTTCCA,-0.0629
CATTGAAC,-0.0502
GGCCCAAC,-0.112
GTCTCGCA,-0.0121
CAGTCTGG,-0.238
AACAACGT,-0.125
CCCACGCA,0.0439
CGGCGGAG,0.433
ACTCTTGG,-0.238
CGGAGATC,-0.019
AAGATTGT,-0.245
GACCCAGC,-0.0748
AGGCAAGC,-0.035
ATTGGAAC,-0.214
GTTCCACA,-0.12
CAACCATG,0.027
CCGAGTCC,0.178

# Series 3 — method: DHFR PCA, deep sequencing; medium: yeast; with: (+)-ABA 0.032 µM; baseline: wild-type fitted maximum; direction: higher = stronger binding
# Target: ABI1, truncated, D143A, DHFR fusion (Arabidopsis thaliana)
# Notes: methotrexate growth selection, single substitutions
# Starting sequence: PYL1, truncated, DHFR fusion (Arabidopsis thaliana); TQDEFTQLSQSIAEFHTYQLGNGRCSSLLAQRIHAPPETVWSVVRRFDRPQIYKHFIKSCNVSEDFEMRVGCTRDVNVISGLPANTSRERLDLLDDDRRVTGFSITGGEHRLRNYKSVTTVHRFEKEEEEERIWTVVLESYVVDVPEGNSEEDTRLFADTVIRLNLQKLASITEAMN
Substitution,relative binding score
V44Y,-5.84%
I133M,18.9%
M176P,1.55%
P146M,15.7%
E64Q,30.9%
E152Q,13.2%
H16S,0.618%
K54H,3.88%
V100H,-1.73%
W41R,3.03%
R155F,-9.03%
I33Y,-1.74%
Q167W,1.08%
I52V,43.9%
N149W,7.55%
R155A,-2.13%
E128T,34.9%
D95L,-3.07%

# Series 4 — method: protein-binding microarray; form: double-stranded DNA, one strand shown; medium: in vitro; concentration: 2200 nM top; notes: 60-bp whole probe; with: salmon DNA 0.4 mg/ml; baseline: random background probes; direction: higher = stronger binding; shared flanks, not repeated: GCCTAGCAC … GTCTTGATTCGCTTGACGCTGCTG
# Target: Interferon regulatory factor 7, full length, phosphomimetic (IRF7, Homo sapiens, UniProt Q92985, residues 1-503, S471D/S472D/S475D/S476D/S477D/S483D/S484D/S487D)
# Construct (chain): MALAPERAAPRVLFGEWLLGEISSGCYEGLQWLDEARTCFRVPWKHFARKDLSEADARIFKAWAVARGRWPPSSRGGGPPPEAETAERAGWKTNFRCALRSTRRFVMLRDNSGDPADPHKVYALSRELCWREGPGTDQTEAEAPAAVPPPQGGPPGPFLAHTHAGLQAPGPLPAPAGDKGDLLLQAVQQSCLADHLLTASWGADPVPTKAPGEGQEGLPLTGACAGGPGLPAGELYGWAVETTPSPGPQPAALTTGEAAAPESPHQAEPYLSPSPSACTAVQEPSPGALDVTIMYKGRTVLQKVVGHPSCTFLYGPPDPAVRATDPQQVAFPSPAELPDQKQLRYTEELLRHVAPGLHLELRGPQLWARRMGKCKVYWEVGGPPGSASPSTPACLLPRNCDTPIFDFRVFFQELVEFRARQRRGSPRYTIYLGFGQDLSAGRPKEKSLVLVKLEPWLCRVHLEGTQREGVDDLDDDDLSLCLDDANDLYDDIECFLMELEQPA
Sequence,fitted relative affinity
GACGGTTTCGGTCTCGGGTCGTGCTAG,7.26 z-score
TCATTGTTCTCTCTGGCACTGTGCTAG,1.59 z-score
ACTGATCACCGATTTCCTTCAGTGCTA,1.49 z-score
TCACCTTTTTTTTTTTTACTGTGCTAG,1.86 z-score
AATACCTTCGAGTCTGCAACAGTGCTA,1.12 z-score
GACGCTATCGACTTTCGGGACGTGCTA,3.45 z-score
TTAGGTTTCGGTTTCGGTCAGTGCTAG,14.7 z-score
TCAGTTTTCATTATTGCACTGTGCTAG,3.12 z-score
GACGGTCTCGGACTAGGGACGTGCTAG,-0.432 z-score
TTAGGTTTCGGTTCTGGTTAGTGCTAG,11.3 z-score
GACGATTTCACTTCCGAGACGTGCTAG,2.76 z-score
TCAGTTTTCATTATTGTACTGTGCTAG,2.85 z-score
TTACAACTGAGTATCGATTAGTGCTAG,0.29 z-score
GACGGTTTCGGTATAGGGACGTGCTAG,6.76 z-score
AATCAACTTTTTTTAATTGAGTGCTAG,-0.404 z-score
GGAAGCTTCTTTTTTATTCTGTGCTAG,1.01 z-score
TCATACATGGGTATAGAACTGTGCTAG,0.243 z-score
GACGCTTTCAGTCTCGAGACGTGCTAG,2.23 z-score
TTCGGTCTCCTACTGCTTTAGTGCTAG,1.73 z-score

# For quick reference, copied from above (series 1):
Substitution,normalised enrichment score
N6A,1.52
L7W,-0.381
E12Y,2.2
S1N,3.26
L8C,1.56
F11T,-0.306
L8D,-0.0465
L7Q,-1.25
L7A,-0.544
